Measurements collected from several papers.
Every numbered part comes from another study and shows a few of its results, in no order.

Study 1
Target: RNA binding protein fox-1 homolog 2, RRM domain, GST-SBP tag (RBFOX2, Homo sapiens, UniProt O43251-10, residues 100-194)
Method: RNA Bind-n-Seq
Form: RNA
Matrix: in vitro
Concentration: 365 nM
Setting: natural RNA segment, single round, ends assumed
Reference: no-protein control
Reading: higher = stronger binding
All sequences stand within: GGGAGUUCUACAGUCCGACGAUC … UGGAAUUCUCGGGUGCCAA
Target sequence (chain): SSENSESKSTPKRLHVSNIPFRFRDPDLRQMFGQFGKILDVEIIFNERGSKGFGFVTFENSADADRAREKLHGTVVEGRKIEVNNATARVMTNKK
`UUAAAGAGAGUUUUUUGGGGCCACCAAAUAUUUUGGAUCAUGCAGAGAAUAUAUAUUGUACUGUAGUAAUUUUGUAUUUACAUUUGUAUGAUGUGACAUAAUAGAUGUGA`: “RBNS enrichment (R)” 0.666.
For `GUACCCGGUGUCAGAACAUUUAAGCGUUCUAAAUAAUUUUGUGCUGCUAUCCAUCAGAACGUCUAUUCCAGCCUUGCCAGCUUAAGAACUUAGAGAAAUUAAGAGGUAUC`, “RBNS enrichment (R)” read 0.857.
Under “RBNS enrichment (R)”, `AUAUAAUUAUAAGAGGAAGUGUAGUGAAUUGUACAGCUGUUGUAAUAAUGACCUAUUUCUAUAAAAAAAUAAAAUUGUACGGAUUAUGUGUAAAUUAUUUUGUAUCUGAG` is recorded as 0.596.
`UUUUGUCUUGUGUUGGGGUUAGAGAGAGCAGGAAGGGGGUUCUGACCCUCUUCCCUCCACUGAGUGCUGGACAUUCGGAACCCAAGUUCUUAUGGACCUACGGAGGAGAG`: “RBNS enrichment (R)” 0.496.
`GUCUGUCUACUACACACUCUGGUUUCUCCCUGCACUGUCUUUUUACUGUUAGCCAAACAUUUUGCCUGUUUUCUGUCUCCAGAUGUGUGAUAAUUGGUGUGAGGUUGAAA` — result for “RBNS enrichment (R)”: 2.4.
For `CUGGUUAUUUCUUGUCUUCCAUCUUAGAAGAAUUGUGUUUCUUCAGGAUACUCUUGUACCUGUGGUUCAUGCUUGAAAUGUUAAAGAUUCCUUAAUCCAACUUAUACCGG`, “RBNS enrichment (R)” read 0.318.
Under “RBNS enrichment (R)”, `GGUUUGGAAAUCCUUUAUUCUCUUUUCUCAAUACCAAGUGGUGCCUUACUGUGGCAGCAGUGUCACUGUCACUGAAAUAAACGUAAGCCCUACCUUCUUUCUUGUUUGAU` is recorded as 0.424.
Under “RBNS enrichment (R)”, `CCUUCAGACACUCUGCCUCUUAGUGCCAAACCCACCGUCAGACCAAGAGUCAGGACUUCAGGACUCUGUCCUUCCUUCCCACUCAUCGCCCUUGCAGACAGCGUGUGCUU` is recorded as 0.405.

Study 2
Target: Fragile X messenger ribonucleoprotein 1, C-terminal low-complexity region (Fmr1, Mus musculus, UniProt P35922)
Method: RNA Bind-n-Seq
Form: RNA
Matrix: in vitro
Concentration: 200 nM
Setting: whole 134-nt RNA, ends assumed
Added: 150 mM KCl
Reference: input library
Reading: higher = stronger binding
All sequences stand within: GGGAGUUCUACAGUCCGACGAUC … UGGAAUUCUCGGGUGUCAAGG
The log2 enrichment of `UCCUGUGCUACACAUCGUAUGUACCGAAUCGGGGUUUUUGGGGUUUUUGGGUUUUUGGGGAAAGUAUUAUGUUACGCCGUUCGGAUCUGC` is reported as 0.52.
`CCUCAAGUCCUGUGCUACACAUCGUAUGUACCGAAUCGGGGAGGGGAGGAGGGAAAGUAUUAUGUUACGCCGUUCGGAUCUGCACUUCCA` gave a log2 enrichment of 1.04.
For `UCCUGUGCUACACAUCGUAUGUACCGAAUCGGGGCCCCCGGGCCCCCGGGGCCCCCGGGGAAAGUAUUAUGUUACGCCGUUCGGAUCUGC`, the log2 enrichment was -0.834.
`CCUCAAGUCCUGUGCUACACAUCGUAUGUACCGAAUCGGGAGGGGAGGGGAGGAAAGUAUUAUGUUACGCCGUUCGGAUCUGCACUUCCA` gave a log2 enrichment of 0.563.
`UAACUUUAGAGGAGGAUCUGAUGGAUAUGGCAGUGGACGUGGAUUUGGGGAUGGCUAUAAUGGGCAUGGAGGAGGACCUGGAGGUGGCAA` gave a log2 enrichment of 0.154.
The log2 enrichment of `UAGGUGUUAUCUUCAGGAAGGCACACUGGACCUGCUAAAUUAACAAAUGGAAAGAAAGCGUAAGUACUUGAAGACGUUUACAACUUCAGA` is reported as -1.44.
The log2 enrichment of `CUGUGCUACACAUCGUAUGUACCGAAUCGGGGAAAAAAAGGGGAAAAAGGGGUUUUUGGGGAAAGUAUUAUGUUACGCCGUUCGGAUCUG` is reported as -0.0571.
The log2 enrichment of `UGCCUGUAUGGAGUGGAAUGAAUGUUGCUGGUGUCUCUCUGAAGACUCUGCACCCAGAUUUAGGGACUGAUAAAGAUAAGGAACAGUGGA` is reported as -0.552.

Study 3
Target: Replicase polyprotein 1ab, main protease (rep, Severe acute respiratory syndrome coronavirus 2, UniProt P0DTD1)
Read-out: enzyme activity
Mode: inhibitor
Concentration: 20 µM
Setting: hit confirmation, no DTT
With `C[C@@H]1O[C@@H](O[C@@H]2[C@@H](O)[C@H](OCCc3ccc(O)c(O)c3)O[C@H](CO)[C@H]2OC(=O)/C=C/c2ccc(O)c(O)c2)[C@H](O)[C@H](O)[C@H]1O` the inhibition was 95.4%.
`C=C1c2cccc(O)c2C(=O)C2=C(O)[C@]3(O)C(=O)C(C(N)=O)=C(O)[C@@H](N(C)C)[C@@H]3[C@@H](O)[C@H]12` has an inhibition of 91%.
With `O=C1C(Cl)=C(Cl)C(=O)C(Cl)=C1Cl` the inhibition was 110%.

Study 4
Target: Replicase polyprotein 1ab, nsp13 helicase (rep, Severe acute respiratory syndrome coronavirus 2, UniProt P0DTD1)
Mode: inhibitor
Concentration: 20 µM
The inhibition of `CO/N=C(\C(=O)N[C@@H]1C(=O)N2C(C(=O)O)=C(CSc3nc(=O)c(O)nn3C)CS[C@H]12)c1csc(N)n1` is reported as 10.6%.
With `C[C@H](Nc1cc2c(-c3ccc4c(c3)OCO4)noc2cn1)c1ccccc1` the inhibition was 1.98%.
For `CCN(CC)CCc1nc(-c2ccccc2)no1`, the inhibition was 0%.
The inhibition of `CC(=O)OCC1=C(C(=O)O)N2C(=O)[C@@H](N)[C@H]2SC1` is reported as -1.34%.
The inhibition of `O=c1cc[nH]c(=S)[nH]1` is reported as -3.72%.
The inhibition of `O=c1ccc2ccccc2[nH]1` is reported as -2.15%.
`COc1cccc([C@@]2(O)CCCC[C@@H]2CN(C)C)c1` gave an inhibition of -3.59%.
`c1ccc2c(c1)CCCC2C1=NCCN1` (centres unmarked) has an inhibition of 2.75%.
The inhibition of `NC[C@H]1CC[C@H](C(=O)O)CC1` is reported as 0.8%.
`CCSc1ccc2c(c1)N(CCCN1CCN(C)CC1)c1ccccc1S2` has an inhibition of 14.3%.
`CC(C)CN(C[C@@H](O)[C@H](Cc1ccccc1)NC(=O)O[C@H]1CCOC1)S(=O)(=O)c1ccc(N)cc1` has an inhibition of 1.46%.
The inhibition of `COc1cc(C(=O)N(CCC2CCCN2C)C/C(C)=C/c2ccccc2F)cc(OC)c1OC` (centres unmarked) is reported as 6.08%.
`Cc1c(C)c2c(c(C)c1O)CCC(C)(COc1ccc(CC3SC(=O)NC3=O)cc1)O2` (centres unmarked) gave an inhibition of 2.36%.
For `CC(C)[C@H](CO)Nc1nc(Nc2cc(N)cc(Cl)c2)c2ncn(C(C)C)c2n1`, the inhibition was 8.91%.
For `C[C@@H]1O[C@@H]1P(=O)(O)O`, the inhibition was 0.65%.
`CCN1CCN(Cc2ccc(C(=O)Nc3ccc(C)c(Oc4ccc5c(c4)CC(=O)N5)c3)cc2C(F)(F)F)CC1` gave an inhibition of 8.09%.
The inhibition of `NS(=O)(=O)c1cc2c(cc1Cl)NC(CC1CCCC1)NS2(=O)=O` (centres unmarked) is reported as 3.05%.
With `N[C@H](C(=O)O)c1ccc(O)c(C(=O)O)c1` the inhibition was 2.87%.
`COc1ccc2cccc(N3CCN(CCNC(=O)c4ccc(F)cc4)CC3)c2c1` gave an inhibition of -1.56%.
For `Cc1nc(N(C)C(=O)Cc2ccc(-c3ccccn3)cc2)sc1S(N)(=O)=O`, the inhibition was 2.25%.
The inhibition of `Cc1cc2c(F)c(Oc3ncnn4cc(OC[C@@H](C)OC(=O)[C@H](C)N)c(C)c34)ccc2[nH]1` is reported as 3.14%.
`O=C(O)c1ccc(S(=O)(=O)N(Cc2ccc(OC(F)(F)F)cc2)c2ncc(C(F)(F)F)cc2Cl)cc1` gave an inhibition of 9.6%.
The inhibition of `C[C@H](N)[C@H](O)c1ccc(O)c(O)c1` is reported as 32.6%.
`CN(C)CCc1c[nH]c2ccc(C[C@H]3COC(=O)N3)cc12` has an inhibition of 11.2%.
With `O=[N+]([O-])O[C@@H]1CO[C@H]2[C@@H]1OC[C@@H]2O` the inhibition was 3.88%.

Study 5
Cell line: HEK-293T-ACE2
Concentration: concentration not given
Reference: vehicle
`CC(C)(C)c1cc(C(C)(C)C)c(NC(=O)c2c[nH]c3ccccc3c2=O)cc1O` gave a cell number of 97.9%.
`Nc1nc2[nH]cc(CCc3ccc(C(=O)N[C@@H](CCC(=O)[O-])C(=O)[O-])cc3)c2c(=O)[nH]1.Nc1nc2[nH]cc(CCc3ccc(C(=O)N[C@@H](CCC(=O)[O-])C(=O)[O-])cc3)c2c(=O)[nH]1.O.O.O.O.O.[Na+].[Na+].[Na+].[Na+]` has a cell number of 89.7%.
`CC(C)C(=O)OCC(=O)[C@@]12O[C@H](C3CCCCC3)O[C@@H]1C[C@H]1[C@@H]3CCC4=CC(=O)C=C[C@]4(C)[C@H]3[C@@H](O)C[C@@]12C` has a cell number of 70.4%.
With `COc1cc2c(cc1Cc1cccc(Cl)c1F)c(=O)c(C(=O)O)cn2[C@H](CO)C(C)C` the cell number was 104%.

Study 6
Target: Sal-like protein 4, full length isoform B (SALL4, Homo sapiens, UniProt Q9UJQ4-2, residues 1-616)
Method: universal PBM
Form: double-stranded DNA, one strand shown
Matrix: in vitro
Concentration: not given
Setting: 8-mer, flanks averaged, mean of replicates
Reading: higher = stronger binding
For `ACAATTAG`, the E-score was 0.123.
`CAACCGAA` has an E-score of -0.0637.
The E-score of `GATGATCA` is reported as -0.00626.
The E-score of `GGCCAGAC` is reported as -0.313.
For `ATCGAAGC`, the E-score was -0.0834.
`ACATTAGT` gave an E-score of 0.104.
`GGTATGAA` has an E-score of 0.281.
For `AAACCGGC`, the E-score was -0.36.

Repeated from above (study 4):
`COc1cccc([C@@]2(O)CCCC[C@@H]2CN(C)C)c1` gave an inhibition of -3.59%.
`c1ccc2c(c1)CCCC2C1=NCCN1` (centres unmarked) has an inhibition of 2.75%.
The inhibition of `NC[C@H]1CC[C@H](C(=O)O)CC1` is reported as 0.8%.
`CCSc1ccc2c(c1)N(CCCN1CCN(C)CC1)c1ccccc1S2` has an inhibition of 14.3%.
`CC(C)CN(C[C@@H](O)[C@H](Cc1ccccc1)NC(=O)O[C@H]1CCOC1)S(=O)(=O)c1ccc(N)cc1` has an inhibition of 1.46%.
